Published values from different studies.
Parts stem from different laboratories: compare values within a part only. Positions count from the first letter of the parent shown.

Series 1 — target: CCNE2, cyclin fold, Cln2 fusion (human); technique: yeast growth competition, sequencing; sample: yeast; notes: strong parent motif; reference: not given; reading: higher = stronger binding; measurement: normalised enrichment score
Starting sequence: E2F1 docking peptide (human); PPVKRRLDLETDH; partner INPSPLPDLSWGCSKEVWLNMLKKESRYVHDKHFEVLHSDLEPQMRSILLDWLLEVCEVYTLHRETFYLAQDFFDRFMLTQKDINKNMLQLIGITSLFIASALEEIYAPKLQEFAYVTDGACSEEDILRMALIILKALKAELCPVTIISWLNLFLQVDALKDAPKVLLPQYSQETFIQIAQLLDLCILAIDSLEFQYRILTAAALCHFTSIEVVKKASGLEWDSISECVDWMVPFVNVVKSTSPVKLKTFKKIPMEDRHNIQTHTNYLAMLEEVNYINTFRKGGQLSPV
PPPKRRLDLETDH [V3P]: 1.1
PPVQRRLDLETDH [K4Q]: 0.53
PPCKRRLDLETDH [V3C]: 2
PDVKRRLDLETDH [P2D]: 0.828
PPVKRVLDLETDH [R6V]: 0.568
PPVKRRMDLETDH [L7M]: 0.226
PPVKRRLDLETKH [D12K]: 2.12
PPVKRRLILETDH [D8I]: 1.92

Series 2 — technique: RNA Bind-n-Seq; molecule type: RNA; sample: in vitro; tested at: 200 nM; notes: whole 134-nt RNA, ends assumed; with: 150 mM KCl; reference: input library; reading: higher = stronger binding; measurement: log2 enrichment
Target: Ras GTPase-activating protein-binding protein 1, full length (G3BP1, Homo sapiens, UniProt Q13283)
Chain of UniProt Q13283 (whole entry, looked up): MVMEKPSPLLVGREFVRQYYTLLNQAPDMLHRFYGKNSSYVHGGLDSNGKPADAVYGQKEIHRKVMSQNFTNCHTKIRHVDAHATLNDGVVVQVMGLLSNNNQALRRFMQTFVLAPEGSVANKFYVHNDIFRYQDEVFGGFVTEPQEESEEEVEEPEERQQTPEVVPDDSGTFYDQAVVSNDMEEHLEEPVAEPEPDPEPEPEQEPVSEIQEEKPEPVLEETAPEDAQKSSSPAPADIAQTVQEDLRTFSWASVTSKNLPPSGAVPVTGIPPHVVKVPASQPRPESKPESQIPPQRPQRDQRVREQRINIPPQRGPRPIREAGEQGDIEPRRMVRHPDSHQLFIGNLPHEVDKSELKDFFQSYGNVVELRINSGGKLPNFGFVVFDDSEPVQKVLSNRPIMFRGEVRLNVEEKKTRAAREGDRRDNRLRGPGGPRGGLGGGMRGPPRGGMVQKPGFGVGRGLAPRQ
Shared flanks, not repeated: GGGAGUUCUACAGUCCGACGAUC … UGGAAUUCUCGGGUGUCAAGG
GCAGGAAGUAAAAACAAAUGGAAAUGCUUCGGAUAGUGGCAGGGGUGGGGGUUGUUAAGGAAAGGGUGGGAUGGGAGUGGGUAAAGAGUU: 0.891
UCAAGUCCUGUGCUACACAUCGUAUGUACCGAAUCGGUUUGGAAAGGAAAAAGGAAAGUAUUAUGUUACGCCGUUCGGAUCUGCACUUCC: -0.669
CACAGACAACACGCACCCACACAGACACAGAGGGAAGGGGUUGGGAUGGGGACAGGGUACACAGCAGGGCGGGGUAGGACCCCAGCCCCU: 1.75
CCUGUGCUACACAUCGUAUGUACCGAAUCGGAAAAAAAGGGAAAAAAAGGAAAAAAAGGGAAAGUAUUAUGUUACGCCGUUCGGAUCUGC: -0.956
UAGUCCAGCAUCAAGAUUCGCCGGCCUGGAUACAAAUCAGCGACUUACAGCUUUAGCUGAAGACAGACCGUUAUUUGAUGGACCUAGUAG: -1.56
CAAGUCCUGUGCUACACAUCGUAUGUACCGAAUCGGUUUGGAAAGGUUUUUUUGGAAAGUAUUAUGUUACGCCGUUCGGAUCUGCACUUC: -1.04
GUCCUGUGCUACACAUCGUAUGUACCGAAUCAAAUUUUUUUAAAUUUAAACCCCCAAAAAAGUAUUAUGUUACGCCGUUCGGAUCUGCAC: -0.114
UGGAGAAGCGCUACCUGGCUGCUCAGCGUGAGGCAACAUCCAUCCAUGACCUCAAUGACAAGCUGGAGAAUGAGCUGGCCAACAAGGAGU: -0.758
CCUGUGCUACACAUCGUAUGUACCGAAUCGGGGAAAAAGGGGUUUUUGGGGUUUUUGGGGAAAGUAUUAUGUUACGCCGUUCGGAUCUGC: 0.283

Series 3 — technique: RNA Bind-n-Seq; molecule type: RNA; sample: in vitro; tested at: not given; reference: input RNA pool; reading: higher = stronger binding; measurement: bound/input enrichment
Target: RING finger protein unkempt homolog, zinc fingers 1-6, GST-SBP tag (UNK, Homo sapiens, UniProt Q9C0B0, residues 30-357)
Notes: RNA with constant flanks, human-mouse chimeric sites, ends assumed
Shared flanks, not repeated: GGGAGUUCUACAGUCCGACGAUC … CAACAGAGGAUUGAGCAUCA
Residues (chain): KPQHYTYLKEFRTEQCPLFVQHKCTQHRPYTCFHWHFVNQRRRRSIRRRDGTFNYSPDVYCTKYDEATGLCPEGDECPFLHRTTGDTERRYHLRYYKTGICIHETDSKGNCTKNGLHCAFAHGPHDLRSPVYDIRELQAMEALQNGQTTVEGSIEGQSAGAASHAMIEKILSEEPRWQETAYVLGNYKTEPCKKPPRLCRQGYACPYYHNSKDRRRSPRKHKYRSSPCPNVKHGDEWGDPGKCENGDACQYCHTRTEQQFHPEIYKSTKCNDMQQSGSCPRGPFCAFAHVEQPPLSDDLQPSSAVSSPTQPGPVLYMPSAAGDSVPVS
GCUGAAAAUGAAGAAGAGGCAGCUGAUGUCUGGUACAACUUGGGACACAUAGCUGUGGGAAUCGGAGAUACAAACUUGGCCCACCAAUGCUUCAGGCUGGCCCUGGUCCACAACAACCAC: 0.0963 ratio
CUGUGUGUGCUGAAUAAAUGGCUUGUAAAGAAGUUUUUCCAAGCUGUACCCAUGUACGUUAUUAUAGUUGCUGCAAAAUGUUCUUCCUGAUAUUGAUUUUAUUUGUUCUGACUCUCCCUC: 0.766 ratio
CACUCGAGGGCUGCCGUUUUCUGUUUCUCCCUGGGCUGCGGAAAGCCAGAAGAUUUUAUCUAGUUUGUACAAGGCUGCUGGUGUUCCCUCUUUUUUUCCACGAGGGUGUUUUUGGCUGCA: 0.598 ratio
GCAAAGGAUGAUGAGGCGGCAGCUGUUGCCCUUUCCUCCCUGAUUCAUGCUUUGGAUGAGUUAAACAUGGUCGCCAUCGUCCGAUAUGCUUAUGACAAAAGAUCUAAUCCUCAAGUUGGU: 0.203 ratio
CACGUGUCUGCAGUGCUUGAUGUGGAUUACUCUCCCACUGGGAAGGAAUUUGUGUCUGCCAGCUUUGAUAAGUCUAUUAGAAUCUUUCCUGUGGACAAGAGCCGAAGCAGGGAAGUGUAU: 0.242 ratio
GGACAUCUGUCAAAUUGUUAUGUUCCUGUGAAACAAGUGAACACUCUUCAUAUACUAAUCUGCUUGUACAUCUGUAUGAUAGAGAAAUGUAAAUAUGUUAAUCCAAGAUGAAUUCAACUU: 0.307 ratio
CUGGCACUCUAUCAGAUAUAUUAAUUUUUAAAUGUAGAUGUAAUUUUAAAAAUGAAUGGCUACUUUACGUGAUAGAUUAGGGUUUUACUAUAUAUGUGUACAUAUGUAUAUAUAUAUAUA: 6.38 ratio
AAAGCCCUUGAAGAAAAAAAAAACUCGAACAGAUUUGACAAGGGUAGCCAGCUUGGAGUCUAGCAACUUUGCCAAUGGUUUACCAAUCUGGGGGCUUGUUUUUCUUUUCUUCUUUCAAAU: 0.427 ratio

Mixed results
PhoQ, residues 284 288 289 292 302 303 SVTLVV
fold induction (PhoP, residues 12 14 15 18 19 NMSFL (Escherichia coli, UniProt P23836); Sort-seq, item: YFP reporter; E. coli; PhoQ-PhoP variant library, with: 10 µM Mg2+; reference: high Mg2+ state, higher = stronger signaling): 4.69
